Measured values gathered from unrelated publications.
Compare with care: the assays were run in different laboratories. ± marks the error that the study gave. In brackets after ≈: the same amount, converted by molar mass.

CC(=O)[O-].O.[Cu+2].[O-]c1ccc(Br)cc1C=NCCN1CCOCC1
inhibition (hydroxyl radical scavenging; 40 µM): 8.28%

N=C(N)NCCC[C@@H]1NC(=O)[C@H](CCCNC(=N)N)NC(=O)[C@@H](CCCNC(=N)N)NC(=O)[C@@H](CCCNC(=N)N)NC(=O)[C@@H](C(c2ccccc2)c2ccccc2)NC(=O)[C@H](Cc2c[nH]c3ccccc23)NC(=O)[C@@H](C(c2ccccc2)c2ccccc2)NC1=O
MIC (Blastomyces dermatitidis; BD-1): 1 µg/mL (≈ 0.795 µM)

O=C(N/N=C/c1ccc(C[n+]2ccccc2)cc1)C(=O)N/N=C/c1ccc(C[n+]2ccccc2)cc1
ΔTm (telomeric G4 DNA hybrid-2; FRET melting; 1 µM, DNA 0.2 µM): 4.5 ± 2 °C

CN1CCCNC(=O)c2cccc(c2)C(=O)NCCCN(C)CCCNc2cccc3c2C(=O)c2cccc(c2C3=O)NCCC1
log2 fold change (SAS; RNA-Seq, measured: RIDA mRNA; 1 µM, 6 h; relative to: untreated cells): 0.688

COC1CN([C@H]2CC[C@H]([C@@]3(C)Oc4c(Cl)cc(C(=O)NCc5c(SC)cc(C)[nH]c5=O)c(C)c4O3)CC2)C1
log2 fold change (RNA-seq, measured: MICU1 mouse homolog; mouse, HT-1376 xenograft, whole blood; dose not given; relative to: vehicle): 0.554

Nc1ncc(-c2cc(-c3cnn(CC(F)(F)F)c3)ncc2F)nc1C(=O)NC1CNCC(F)C1 (stereo not shown)
remaining binding (PIM1; KINOMEscan; 1 µM; relative to: DMSO control): 39%

C[n+]1ccc(/C=N/NC(=O)c2cccc(C(=O)N/N=C/c3cc[n+](C)c4ccccc34)c2)c2ccccc21
ΔTm (telomeric G4 DNA hybrid-2; FRET melting; 1 µM, DNA 0.2 µM, together with: duplex DNA competitor 10 µM): 12.8 ± 0.7 °C

CNS(=O)(=O)Nc1nccc(Cc2c(C)c3ccc(Oc4ncccc4F)cc3oc2=O)c1F
IC50 (SW48; cell viability; 7 days): 0.00219 µM

O=C(N/N=C/c1cc[n+](Cc2ccccc2)c2ccccc12)c1cccc(C(=O)N/N=C/c2cc[n+](Cc3ccccc3)c3ccccc23)n1
ΔTm (telomeric G4 DNA hybrid-2; FRET melting; 1 µM, DNA 0.2 µM): 25.1 ± 0.4 °C

C=CC(=O)N1[C@H](c2ccc3c(c2)OCO3)c2[nH]c3ccccc3c2C[C@@H]1C(=O)N1CCN(C)CC1
relative co-enrichment (human cyclin E1 N112C-3xFLAG:CDK2; co-IP with TMT proteomics, measured: SRP9; concentration not given, P49458; relative to: wild type DMSO): 115%

Cc1ncsc1-c1ccc(C(C)NC(=O)C2CC(O)CN2C(=O)C(NC(=O)CCCCCCCCCCN2CCCC(Nc3ncc(Cl)c(Nc4ccccc4S(=O)(=O)C(C)C)n3)C2)C(C)(C)C)cc1 (stereo not shown)
log2 fold change (22Rv1; RNA-seq, measured: TFAP4 mRNA; concentration not given; relative to: DMSO): -1.93

O=C(N/N=C/c1cc[n+](Cc2ccccc2)c2ccccc12)c1cncc(C(=O)N/N=C/c2cc[n+](Cc3ccccc3)c3ccccc23)n1
ΔTm (telomeric G4 DNA hybrid-2; FRET melting; 1 µM, DNA 0.2 µM, together with: duplex DNA competitor 10 µM): 21.8 ± 0.6 °C

C=CC(=O)Nc1cccc(Cn2ncc3cnc(Nc4cnn(CCOC)c4)nc32)c1
percent of control (MAK human; binding, KINOMEscan; 100 nM; lower = stronger binding): 97%

CC(C)(C)c1cc(-c2ccc3cccnc3n2)nc(-c2ccc3cccnc3n2)c1.[Cl-].[Cl-].[Ru+2].c1ccc2cc3nc4c5cccnc5c5ncccc5c4nc3cc2c1
EC50 (B16-F10; resazurin; together with: light 733 nm, 9 mW, 100 J/cm2): 5.09 µM

C[n+]1ccc(/C=N/NC(=O)C(=O)N/N=C/c2cc[n+](C)c3ccccc23)c2ccccc21
ΔTm (telomeric G4 DNA hybrid-2; FRET melting; 1 µM, DNA 0.2 µM, together with: duplex DNA competitor 10 µM): 1.7 ± 0.4 °C

O=C(c1cc(-c2ccccc2)n(-c2ccccc2)n1)N1CCc2nc[nH]c2C1
EC50 (Genome polyprotein, NS2B-NS3 protease (dengue virus type 2, UniProt P29990); reporter gene; HeLa): 16 µM

Excerpt of the above:
CC(C)(C)c1cc(-c2ccc3cccnc3n2)nc(-c2ccc3cccnc3n2)c1.[Cl-].[Cl-].[Ru+2].c1ccc2cc3nc4c5cccnc5c5ncccc5c4nc3cc2c1
EC50 (B16-F10; resazurin; together with: light 733 nm, 9 mW, 100 J/cm2): 5.09 µM

C[n+]1ccc(/C=N/NC(=O)C(=O)N/N=C/c2cc[n+](C)c3ccccc23)c2ccccc21
ΔTm (telomeric G4 DNA hybrid-2; FRET melting; 1 µM, DNA 0.2 µM, together with: duplex DNA competitor 10 µM): 1.7 ± 0.4 °C
